Measurements from different studies.
Numbered parts are unrelated; each lists some results of a single study. Changes are numbered by the printed parent chain.

Series 1 — target: JUNB, bZIP domain (human); method: DHFR protein complementation; medium: yeast; relative to: wild-type JUN-FOS pair; direction: higher = stronger binding; measurement: binding fitness
Setting: single substitutions, most at no-binding floor
Parent: JUN, bZIP domain (human); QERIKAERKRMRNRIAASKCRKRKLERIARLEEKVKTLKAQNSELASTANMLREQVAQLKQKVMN; partner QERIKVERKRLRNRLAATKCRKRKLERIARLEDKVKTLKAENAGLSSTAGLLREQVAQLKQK
Variant = L52D; result = -1.54 natural log
Variant = E32S; result = -1.4 natural log
Variant = E54C; result = -1.37 natural log
Variant = A46R; result = -0.716 natural log
Variant = A57N; result = -1.18 natural log
Variant = R30Y; result = -1 natural log
Variant = L45C; result = -1.49 natural log
Variant = L31P; result = -1.52 natural log
Variant = Q58R; result = -1.07 natural log
Variant = S43W; result = -1.31 natural log
Variant = R53G; result = -1.45 natural log
Variant = S47L; result = -1.05 natural log
Variant = L52V; result = -1.36 natural log
Variant = A57Q; result = -1.23 natural log
Variant = S47V; result = -1.04 natural log
Variant = A40L; result = -1.21 natural log
Variant = T37L; result = -0.941 natural log

Series 2 — method: protein-binding microarray; molecule type: double-stranded DNA, one strand shown; medium: in vitro; concentration: 250 nM; setting: 60-bp whole probe; with: salmon DNA 0.4 mg/ml; relative to: random background probes; direction: higher = stronger binding; measurement: log fluorescence; all sequences stand within: GCCTAGCAC … GTCTTGATTCGCTTGACGCTGCTG
Target: Interferon regulatory factor 5, full length, phosphomimetic (IRF5, Homo sapiens, UniProt Q13568-2, residues 1-514, K96S/S451D/S453D/S456D/S462D)
Strand = TTAGGTATCCTACTGGTTTAGTGCTAG; result = 0.145 z-score
Strand = TTAGGTATCCTAGTGCTTTAGTGCTAG; result = -0.387 z-score
Strand = GACGCTCTCCTTTTCCTGACGTGCTAG; result = 0.119 z-score
Strand = TTAGGTCTGGGGTATCGGTTAGTGCTA; result = 2.11 z-score
Strand = TTAGGAGTGGGTCTCGGTTAGTGCTAG; result = -0.0601 z-score
Strand = TTAGGTCTCCTACGGCTTTAGTGCTAG; result = -0.479 z-score
Strand = TTAGGTTTCGACTTTCGATTAGTGCTA; result = 10.1 z-score
Strand = TTAGGTTTCCTTGTCCTTTAGTGCTAG; result = 0.648 z-score
Strand = TCACCTTTCACTTTAACACTGTGCTAG; result = 4.23 z-score
Strand = GACGGTTTCCTTCTCCTGAAGTGCTAG; result = 0.956 z-score
Strand = TCAGTTTCGTATCTTCATTGTGTGCTA; result = 8.17 z-score
Strand = GACGGGTTCGACTTTCGGGACGTGCTA; result = 4.74 z-score
Strand = GACGATATTAGTATCGAGACGTGCTAG; result = 3.56 z-score
Strand = GACGGTTTCGCTATCGGGACGTGCTAG; result = 7.13 z-score
Strand = CACGGTCTCGGTCTCGGGACGTGCTAG; result = 0.0888 z-score
Strand = TGAAGAATGCCTTTAATAAGGTGCTAG; result = -0.0759 z-score
Strand = TTAGGTATCGACTTTCGGTAAGTGCTA; result = 9.73 z-score
Strand = GACGAAGTGAGTATCGAGACGTGCTAG; result = 1.74 z-score
Strand = TTAGGACTGCTTAGCCTTTAGTGCTAG; result = -0.616 z-score
Strand = TCACCTTCAGCTCTAGGACTGTGCTAG; result = -0.0278 z-score
Strand = CTAGGACTGGACTATCGGTTAGTGCTA; result = 5.42 z-score
Strand = TTAGAACTGAGACTGCATTAGTGCTAG; result = -0.118 z-score
Strand = TTAGGACTGGACACTGGCTTAGTGCTA; result = -0.459 z-score
Strand = TCATTTTTTTTTTTTCTACTGTGCTAG; result = 1.65 z-score
Strand = GACGATTTCAGTTTCGAGAGGTGCTAG; result = 7 z-score

Series 3 — method: RNA Bind-n-Seq; molecule type: RNA; medium: in vitro; concentration: 365 nM; relative to: no-protein control; direction: higher = stronger binding; measurement: RBNS enrichment (R)
Target: RNA binding protein fox-1 homolog 2, RRM domain, GST-SBP tag (RBFOX2, Homo sapiens, UniProt O43251-10, residues 100-194)
Setting: natural RNA segment, single round, ends assumed
All sequences stand within: GGGAGUUCUACAGUCCGACGAUC … UGGAAUUCUCGGGUGCCAA
Residues (chain): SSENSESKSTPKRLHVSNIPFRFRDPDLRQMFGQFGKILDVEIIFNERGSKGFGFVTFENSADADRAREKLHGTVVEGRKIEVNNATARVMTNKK
Strand = CUGCGCAGCCUGCUUUGUCCUCCCAUCUCCGUGGACUCUGUGAAAAUGCCAAAGGAAGGAAGCCUCAGGGACAGGCUGCAACUUGGAGCCCAGCGCAUCACUCUCGGCUU; result = 0.543
Strand = UGAUCAUUCCGAGUGUUGCUGCAAGAUUACAGUGGACGUGAUCUUUUAGCAUGUGCUUUUAUAAAAAGUGGUAGCUACAGAUGAUAUAGCAAUCUACCUUAUAUAGAGCC; result = 0.596
Strand = AAUCUGCUAUUUCUGUUGAAUGGGUCAGUCUUAAAGCUUUAAAAUUCACAUAGGUGGAGUUUCCCAUCUGAAGAUUUCUUUACAAGGACUUUGCUAAGUUCAUCUCAGGG; result = 0.246
Strand = UCAGAGGACUCAGCGUCAGGAUCCGAUGAGUAGAAACGGAGGAAGGUUCUCUUUGCGCUUGCCUUCUCACACCCCCCGACUCCCCACCCAUAUUUUGGUACCAGUUUCUC; result = 0.554
Strand = CUUUUGUUACGAUUCCAUUAGCAAAAAGCACAAAGAGGAGGCGUGUGUGAAGUGGCCUGGGGUUGUUCCAUAAUGAAGACUCAAGAAGACUGUUUCCCCACCACAGAUGU; result = 0.623
Strand = CUGAUGUGUCCUGGGUUGGCAGGUGCCUGGCAGUCCAGACAUCACAGACCCCAGAACAAGGUGAAACCCCCCCCCCCCAUUUCUGGCCUUGUUUUUCUACCUCCCGCACU; result = 0.494
Strand = UUUACUGGCUUUCAUACUUAGCAUUCCAGUGAAAUGUUCUUAGACUCACCAGUGGACAAAUAAUAAGGCCUUUUUUUAUUAUUAUUUCUUGUCUUUUUUGAUCUAAUUUA; result = 0.881
Strand = GUCUUCAAUGCCACCUUCCACAUCUGGCACAGCGGACAGUUUGGCACAAUCAAUAAUUUCAGACUGGGUCGCUUGCCCAGUGUUCCUGUGGAGUGGAAUGAAAUCAAUGC; result = 0.419
Strand = UUUCAAUAGGCAUAUAUUAACAGGCUGCUUAUUUUGGCGGAGGUUACAUAUGGAUGAAAAUGAAUCUUAGUCACUGAAUAUUCAUAUACAUUUCCCCCAAAACCUUAGAC; result = 0.297
Strand = UUCCACUCCCGCCCCUUCUCUUGCAGCCAAGUCAGACUCCAAGAGGCCCCACUGAGCUGCCCUCUCCAAAAACCAGAUUUUUUUUUGUAGUUUUAAUGCCAUUAGUUGUC; result = 0.599
Strand = UCAAGGACAGGAGCCUGGUCCUUCCCUGAUGGCCUUUGGACCCAGGGCCUGACUUGAGCCACUCCUUCCUUCAGGACUCUGCGGGAGGCUGGGGCCCCAUCUUGAUCUUU; result = 0.469
Strand = ACUACGUCCCUCCAAGUGAAGACAGACUGUUUUAGACAGACUUUUUAAAAUGGUGCCCUACCAUUGACACAUGCAGAAAUUGGUGCGUUUUGUUUUUUUUUUUCCUAUGC; result = 0.996

Series 4 — method: DHFR PCA, deep sequencing; medium: yeast; with: (+)-ABA 4.8 µM; relative to: wild-type fitted maximum; direction: higher = stronger binding; measurement: relative binding score
Target: ABI1, truncated, D143A, DHFR fusion (Arabidopsis thaliana)
Setting: methotrexate growth selection, single substitutions
Parent: PYL1, truncated, DHFR fusion (Arabidopsis thaliana); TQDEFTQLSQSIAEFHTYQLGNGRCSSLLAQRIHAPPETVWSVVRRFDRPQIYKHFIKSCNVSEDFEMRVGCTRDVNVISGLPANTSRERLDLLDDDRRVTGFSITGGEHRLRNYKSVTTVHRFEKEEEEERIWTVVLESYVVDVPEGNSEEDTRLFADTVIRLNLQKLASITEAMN
Variant = F157L; result = 42.1%
Variant = E152T; result = 55.8%
Variant = Q167I; result = 47.3%
Variant = V62I; result = 68%
Variant = R123G; result = 86.7%
Variant = V43C; result = 19.5%
Variant = P146Q; result = 6.23%
Variant = E130P; result = 95.6%
Variant = E139F; result = -8.07%
Variant = E38K; result = 32.5%
Variant = S150K; result = 13.5%
Variant = E64G; result = 67.9%
Variant = W41N; result = -11%
Variant = I52E; result = 65%
Variant = G107V; result = -0.709%
Variant = E128W; result = 52.1%
Variant = N114D; result = 24.7%
Variant = W41I; result = -16.3%
Variant = C25N; result = -6.1%
Variant = L93M; result = 63.9%
Variant = A13R; result = 74.8%
Variant = D95C; result = 31.4%

Series 5 — target: CCNB3, cyclin fold, Cln2 fusion (human); method: yeast growth competition, sequencing; medium: yeast; setting: weak parent motif; relative to: not given; direction: higher = stronger binding; measurement: normalised enrichment score
Parent: E2F1 docking peptide (human); PPVKRRLDLETDH
Variant = PPVKRRLDLEIDH [T11I]; result = -0.0198
Variant = PFVKRRLDLETDH [P2F]; result = 0.504
Variant = PPVKRRLDLEADH [T11A]; result = 0.272
Variant = PPVKRKLDLETDH [R6K]; result = 0.138
Variant = PPVKRRLDLETLH [D12L]; result = 0.45
Variant = PPVKRRLDLETGH [D12G]; result = 0.39
Variant = PPVKRRLDLETDL [H13L]; result = 0.0604
Variant = HPVKRRLDLETDH [P1H]; result = 0.58
Variant = PQVKRRLDLETDH [P2Q]; result = 0.21
Variant = PDVKRRLDLETDH [P2D]; result = 0.379
Variant = PPVKRRLDLETEH [D12E]; result = 0.27
Variant = PPAKRRLDLETDH [V3A]; result = 0.719
Variant = VPVKRRLDLETDH [P1V]; result = 0.424
Variant = PPQKRRLDLETDH [V3Q]; result = 0.272
Variant = PPVKRRLDLATDH [E10A]; result = 0.256
Variant = PPKKRRLDLETDH [V3K]; result = 0.0882
Variant = PPNKRRLDLETDH [V3N]; result = 0.542
Variant = PPVKRRPDLETDH [L7P]; result = 0.26
Variant = PRVKRRLDLETDH [P2R]; result = 0.106
Variant = PNVKRRLDLETDH [P2N]; result = 0.18
Variant = PPVKPRLDLETDH [R5P]; result = -0.432
Variant = PPVKQRLDLETDH [R5Q]; result = 0.348
Variant = PPVKRRLHLETDH [D8H]; result = -0.178
Variant = QPVKRRLDLETDH [P1Q]; result = 0.395
Variant = DPVKRRLDLETDH [P1D]; result = 0.0264

Excerpt of the above (series 5):
Variant = PNVKRRLDLETDH [P2N]; result = 0.18
Variant = PRVKRRLDLETDH [P2R]; result = 0.106
Variant = PPVKRRLDLETDL [H13L]; result = 0.0604
Variant = PPVKRRLHLETDH [D8H]; result = -0.178
Variant = PPVKRRPDLETDH [L7P]; result = 0.26
Variant = PPVKRRLDLETGH [D12G]; result = 0.39
Variant = PPNKRRLDLETDH [V3N]; result = 0.542
Variant = PPVKRRLDLETLH [D12L]; result = 0.45
Variant = PPVKRRLDLEADH [T11A]; result = 0.272
Variant = PQVKRRLDLETDH [P2Q]; result = 0.21
Variant = PPVKPRLDLETDH [R5P]; result = -0.432
Variant = PPKKRRLDLETDH [V3K]; result = 0.0882
Variant = PPVKRRLDLEIDH [T11I]; result = -0.0198
Variant = PDVKRRLDLETDH [P2D]; result = 0.379
Variant = DPVKRRLDLETDH [P1D]; result = 0.0264
Variant = PPVKRKLDLETDH [R6K]; result = 0.138
